# Experimental data pooled from the literature.
# Each line is one published result; not all experiments were run side by side. Values joined by “and” are separate records of one study, mostly repeats; a detail may differ. ± marks the error that the study gave.
SMILES,assay,test system,conditions,measurement,value
COc1cc2c(Oc3ccc4[nH]c(C)cc4c3F)ccnc2cc1OCC1(N)CC1,,paediatric recurrent refractory sarcoma,10 mg,grade 3 blurred vision,0%
CCc1ccc(CC/C=C/c2ccc3c(c2)C(=O)CC3)cc1,,"Sprague-Dawley rat, male, serum","oral, 120 mg/kg/day, 14 days",total protein,52.9 g/L
CC[C@H](C)CCCCC(=O)N[C@@H](CCN)C(=O)N[C@H](C(=O)N[C@@H](CCN)C(=O)N[C@H]1CCNC(=O)[C@H]([C@@H](C)O)NC(=O)[C@H](CCN)NC(=O)[C@H](CCN)NC(=O)[C@H](CC(C)C)NC(=O)[C@@H](Cc2ccccc2)NC(=O)[C@H](CCN)NC1=O)[C@@H](C)O,,"critically ill patients, plasma","dose not given, median, fifth infusion",Cmax at steady state,6600 ng/mL
Cn1cncc1-c1c(F)cncc1NC(=O)c1c(N)nn2cc(F)cnc12,,human patients,"oral, 130 mg once daily",grade ≥3 lymphocyte decrease incidence,22%
Cc1ccc(F)c2cc(C(=O)N[C@@H]3CCC[C@H](N4CC[C@H](N(C)S(C)(=O)=O)C4)C3)[nH]c12,,"CD1 mouse, plasma","oral, 30 mg/kg, 2 h",plasma concentration,543 ng/mL
CC(C)(c1ccccc1)c1cc(-n2nc3ccccc3n2)c(O)c(C(C)(C)c2ccccc2)c1,exposure assessment,"human, age 16-21 years","concentration not given, cream, 95th percentile","daily dermal uptake, percentile",4.2 ng/kg body weight/day
CCCCCCC#Cc1cncc(-c2nnc(SCc3ccc([N+](=O)[O-])o3)n2C2CC2)c1,,human plasma,plasma stability,t1/2,4.32 h
CN(C)C1(CNC(=O)c2ccc3c(c2)CCN3C(=O)c2ccccc2)CCOCC1,equilibrium dialysis,mouse brain homogenate,"concentration not given, pH 7.4",brain tissue binding,55.7%
O=C(Nc1ccccc1)C1CCN(C(=O)Oc2cccnc2)CC1,adverse event reporting,healthy women,"oral, 60 mg, 7 days",subjects with cardiac disorders,7.1%
O[C@H]1CCCN[C@@H]1CCCn1cnc2c(Cl)c(Cl)ccc21,,"healthy humans, plasma","oral, 150 mg, added: pirfenidone 600 mg",AUCtau,1490 ng·h/mL
C[C@]1(O)C[C@@](N)(c2ccc(-c3nc4n(c3-c3ccccc3)COc3ccncc3-4)cc2)C1,,"human, advanced or metastatic solid tumours","28 mg intermittent, phase I dose escalation",patients with Rash TEAE,66.7%
CC(C)(O)c1cc(Nc2cc(Oc3cn(C4CC4)nc3C3CCOCC3)ccn2)ccn1,Nausea,"advanced cancer patients, dose escalation","oral, dose not given, 3 weeks on/1 off, all causality grade ≥3",treatment-emergent adverse events,3%
COc1ccc(N=Nc2ccc3[nH]cc(CCN(C)C)c3c2)cc1,light irradiation,solution,added: light 385 nm,cis isomer at photostationary state,90%
COc1ccc(C[C@@H]2NC(=O)[C@H]([C@@H](C)O)NC(=O)[C@@H]3[C@@H]4CCN3C(=O)[C@@H]3Cc5cn(c6ccc(F)cc56)CCCCCCN(Cc5ccc(cc5)CCNC(=O)[C@]5(C)CCCN5C2=O)C(=O)CCC(=O)N[C@@H](C)C(=O)N[C@H](CNC(=O)CCCCC[N+](C)(C)C)C(=O)N[C@@H](Cc2cccc(c2)CNC(=O)CO4)C(=O)N3)cc1,measured: Dizziness,humans,"concentration not given, Study-003",participants with adverse event,6.5%
COc1ccc([C@@H](O)c2cc(-c3ncnc4cc(N5CCOCC5)ccc34)c(F)cc2Cl)nn1,,"patients, advanced solid tumours","oral, 300 mg twice daily, treatment-emergent, added: avelumab",hyponatraemia incidence,4%
CC[C@H](C)[C@H](NC(=O)[C@H](Cc1ccccc1)NC(=O)[C@H](CCC(=O)O)NC(=O)[C@H](CCCCN)NC(=O)[C@H](C)NC(=O)[C@H](C)NC(=O)[C@H](CCC(N)=O)NC(=O)CNC(=O)[C@H](CCC(=O)O)NC(=O)[C@H](CC(C)C)NC(=O)[C@H](Cc1ccc(O)cc1)NC(=O)[C@H](CO)NC(=O)[C@H](CO)NC(=O)[C@@H](NC(=O)[C@H](CC(=O)O)NC(=O)[C@H](CO)NC(=O)[C@@H](NC(=O)[C@H](Cc1ccccc1)NC(=O)[C@@H](NC(=O)CNC(=O)[C@H](CCC(=O)O)NC(=O)[C@H](C)NC(=O)N(N)Cc1c[nH]cn1)[C@@H](C)O)[C@@H](C)O)C(C)C)C(=O)N[C@@H](C)C(=O)N[C@@H](Cc1c[nH]c2ccccc12)C(=O)N[C@@H](CC(C)C)C(=O)N[C@H](C(=O)N[C@@H](CCCNC(=N)N)C(=O)NCC(=O)N[C@@H](CCCNC(=N)N)C(=O)NCC(=O)O)C(C)C,LC-MS/MS,"ICR mice, male, plasma","intravenous bolus, 1 mg/kg",AUC extrapolated percentage,0.3%
CC(C)=CC1C(C(=O)OC(C#N)c2cccc(Oc3ccccc3)c2)C1(C)C (centres unmarked),measured: CYP2C8,"human, age 1 year",,enzyme contribution to clearance,5.79%
CCN1CCN(Cc2ccc(Nc3ncc(F)c(-c4cc(F)c5nc6n(c5c4)[C@H](C)CCC6)n3)nc2)CC1,,advanced solid tumour patients,"dose not given, Phase Ia monotherapy","Hematuria incidence, any grade",37.5%
CCN(CCO)CCCC(C)Nc1ccnc2cc(Cl)ccc12 (centres unmarked),measured: Fatigue grade 1,newly diagnosed glioblastoma patients,"oral, 400 mg/dose, with radiotherapy and temozolomide",patients with adverse event,33%
CO[C@H]1C[C@@H]2CC[C@@H](C)[C@@](O)(O2)C(=O)C(=O)N2CCCC[C@H]2C(=O)O[C@H]([C@H](C)C[C@@H]2CC[C@@H](OC(=O)NCCOCCOCCOCCOCCOCCOCCOCCOCCC(=O)N3CCc4cc(Cn5nc(-c6ccc7oc(N)nc7c6)c6c(N)ncnc65)ccc4C3)[C@H](OC)C2)C[C@@H](O)[C@H](C)/C=C(\C)[C@@H](O)[C@@H](OC)C(=O)[C@H](C)C[C@H](C)/C=C/C=C/C=C/1C,,patients with advanced solid tumours,"intravenous, 10 mg weekly, grade 3 or higher",diarrhoea incidence,0%
CN1CC[C@@H](c2c(O)cc(O)c3c(=O)cc(-c4ccc(C(F)(F)F)cc4Cl)oc23)[C@@H]1CO,measured: urinary incontinence,B-cell malignancies,"oral, 200 mg, grade 3 to 4, intermittent dosing",patients with adverse event,0%
C[C@]1(CO)Cc2ncn(-c3ccc(C#N)c(Cl)c3)c2C(=O)O1,,"healthy Japanese adults, plasma","80 mg once daily, multiple dose",Cmax at steady state,5.18 µM
CNC(=O)c1cc(Oc2ccc(NC(=O)Nc3cc(C(C)(C)C)nn3-c3ccc4ncccc4c3)c(F)c2)ccn1,NCI CTC v3.0,human patients,"oral, 300 mg twice daily, dose at onset",related SAE,25%
CN1CCN(S(=O)(=O)c2cc([N+](=O)[O-])ccc2N(CCOS(C)(=O)=O)CCOS(C)(=O)=O)CC1,,"naive NOD/SCID mice, pooled blood","intraperitoneal, 12.5 mg/kg, week 4",phosphate,2.1 mmol/L
COc1cccc(Oc2ccccc2NC(=O)CNC(=O)c2cccc3ccccc23)c1,,"esterase-deficient SCID mice, male","oral, 15 mg/kg/day, 14 days, toxicity study",serum albumin,3 g/dL and 2.9 g/dL
Cn1ncc(-c2nc(N[C@H]3CC[C@H](N)CC3)ncc2Cl)c1CC1CC1,measured: hypoxia grade 3 or higher,human patients phase I,dose not given,adverse event incidence,17%
C[C@@H]1OC(=O)NN=C1c1ccc(-c2ccc(F)cc2)c(C(F)(F)F)c1,"phase I trial, measured: Ascites all grades",human patients,"dose not given, all dose groups",patients with adverse event,20%
CN(C(=O)n1cnc(-c2ccc[n+]([O-])c2)c1)C1CCCCC1,,"Wistar rat, midbrain","oral, 10 mg/kg, 24 h, single dose",concentration,12.8 ± 0.5 ng/g
COc1ccc([C@@H]2CC(=O)c3c(O)cc(O)cc3O2)cc1O,,"male Sprague-Dawley rat, lean","oral, 100 mg/kg of neohesperidin, 24 to 36 h, after β-glucuronidase/sulfatase hydrolysis","urinary excreted amount, total",1130 ± 532 ng
O.O.O.O.O.O.[Cl-].[Cl-].[Co+2],,"rat male, urine","oral, 10 mg/kg single, day 1",urinary cobalt creatinine-corrected,1.21 µg/µmol creatinine
O=C(O)CCCOc1ccc(F)cc1-c1cc(-c2ccccc2C(F)(F)F)n(-c2ccccc2)n1,measured: Ca,"Crl:CD(SD) rats, female, blood","iv, 25 µg/kg, 1 day",blood chemistry,9.5 ± 0.4 mg/dL
Cc1cc(C)nc(Nc2ncc(C(=O)NCCc3c(C)[nH]c4ccccc34)cn2)c1,,dog liver microsomes,1 µM,maximal hepatic bioavailability,18%
CC(=O)c1c(C)c2cnc(Nc3ccc(C4CCN(CCS(C)(=O)=O)CC4)cn3)nc2n(C2CCCC2)c1=O,,"human, plasma","oral, 100 mg, day 1 single dose",Vd,745 L
COc1ccc(-c2c(-c3ccc(C#N)c(F)c3)nc(N3CCC(N)CC3)n(C)c2=O)cc1F,measured: Nausea,neuroendocrine neoplasm patients,"oral, 60 mg, any grade, dose expansion",treatment-related adverse event incidence,19%
Cc1cc(C)c(CNC(=O)c2cc(Cl)c3c(c2C)O[C@@](C)([C@H]2CC[C@H](N(C)C)CC2)O3)c(=O)[nH]1,,relapsed/refractory NHL patients,"dose not given, trial, safety set, all TEAEs grade 5",incidence of Pneumocystis jirovecii pneumonia,0%
CC(C)CC(=O)OC[C@H]1O[C@@](C#N)(c2ccc3c(N)ncnn23)[C@H](O)[C@@H]1O,plasma protein binding,dog plasma,90 µM,bound fraction,0.746
C[C@@H](NC(=O)N1C(=O)[C@H](Cc2ccnc(N)c2)[C@H]1C(=O)O)C1CCCCC1,,healthy Chinese adult volunteers,"continuous intravenous infusion, 2.25 mg/kg/h, 5.0 days, CTCAE 5.0, all doses",urine leukocyte esterase positive,0%
COc1cccc2c1CCCC2CCCN1CCN(C2CCCCC2)CC1 (centres unmarked),,"CD-1 mouse, male, lung","intraperitoneal, 0.3 mg/kg",half-life,3.13 h

# Excerpt of the above:
SMILES,assay,test system,conditions,measurement,value
CO[C@H]1C[C@@H]2CC[C@@H](C)[C@@](O)(O2)C(=O)C(=O)N2CCCC[C@H]2C(=O)O[C@H]([C@H](C)C[C@@H]2CC[C@@H](OC(=O)NCCOCCOCCOCCOCCOCCOCCOCCOCCC(=O)N3CCc4cc(Cn5nc(-c6ccc7oc(N)nc7c6)c6c(N)ncnc65)ccc4C3)[C@H](OC)C2)C[C@@H](O)[C@H](C)/C=C(\C)[C@@H](O)[C@@H](OC)C(=O)[C@H](C)C[C@H](C)/C=C/C=C/C=C/1C,,patients with advanced solid tumours,"intravenous, 10 mg weekly, grade 3 or higher",diarrhoea incidence,0%
CC(C)(c1ccccc1)c1cc(-n2nc3ccccc3n2)c(O)c(C(C)(C)c2ccccc2)c1,exposure assessment,"human, age 16-21 years","concentration not given, cream, 95th percentile","daily dermal uptake, percentile",4.2 ng/kg body weight/day
COc1ccc(C[C@@H]2NC(=O)[C@H]([C@@H](C)O)NC(=O)[C@@H]3[C@@H]4CCN3C(=O)[C@@H]3Cc5cn(c6ccc(F)cc56)CCCCCCN(Cc5ccc(cc5)CCNC(=O)[C@]5(C)CCCN5C2=O)C(=O)CCC(=O)N[C@@H](C)C(=O)N[C@H](CNC(=O)CCCCC[N+](C)(C)C)C(=O)N[C@@H](Cc2cccc(c2)CNC(=O)CO4)C(=O)N3)cc1,measured: Dizziness,humans,"concentration not given, Study-003",participants with adverse event,6.5%
